Experimental data from different studies.
Protocols differ between the studies behind these lines. Numbers after ± are the reported error. Converted amounts (≈) assume the structure as drawn.

| Structure (SMILES) | organism | assay | system | conditions | how to read | quantity | value |
| --- | --- | --- | --- | --- | --- | --- | --- |
| COc1ccc(CNc2nc([C@H]3CC[C@H](C(=O)O)CC3)nc3sc4ccccc4c23)cc1Cl | Cryptosporidium parvum | parasite growth, immunofluorescence microscopy | HCT-8, Iowa | 48 h post infection, compound added at 3 h | – | EC50 | 910 nM |
| CC(=NNC(=N)N)c1nnn(-c2ccc(C#CC3(O)CCCCC3)cc2)c1C | Klebsiella pneumoniae | – | ATCC 13883 | concentration not given | – | inhibition zone diameter | 28.7 ± 0.47 mm |
| c1ccc(CN2CCOCCOCCN(CCCCCCCCN3CCOCCOCCN(CCCCCCCCN4CCOCCOCCN(Cc5ccccc5)CCOCCOCC4)CCOCCOCC3)CCOCCOCC2)cc1 | Klebsiella pneumoniae | tetracycline MIC, checkerboard | ATCC BAA-2146 | half MIC, added: tetracycline | reference: MIC alone over combination | fold enhancement | 40 fold |
| S=c1n(CN2CCN(c3ccccc3)CC2)nc(C23CC4CC(CC(C4)C2)C3)n1-c1ccccc1 | Micrococcus luteus | microbial growth, disc diffusion | IFO3232 | 200 µg/disc, 24 h | – | inhibition zone | 13 mm |
| CCN(CC)CCSC(=S)N1CCN(C(=O)/C=C/c2coc3ccccc3c2=O)CC1 | tomato spotted wilt virus | viral infection, half-leaf method | Nicotiana glutinosa | 500 µg/mL | – | curative effect | 57.2 ± 1.8% |
| CC(=O)c1c(O)c(C)c(O)c2c1OC1=CC(=O)/C3=C(/C)N[C@H](C(=O)O)CC1=CC=C(O)C=C[C@@]2(C)C3=O | Trichophyton rubrum | broth microdilution | LM 237 | 168 h | – | MIC99 | 394 µM (≈ 200 µg/mL) |
| CCCCCCCCCC1CC2CCC3CC(CCCCCCCCC)NC(=N1)N23 (centres unmarked) | Candida glabrata | fungal growth | ATCC 90030 | – | – | MFC | 2.99 µM (≈ 1.25 µg/mL) |
| COc1ccc2c(=O)c(/C=C/C(=O)N3CCN(C(=S)SCCN(C)C)CC3)coc2c1 | tomato spotted wilt virus | viral infection, half-leaf method | Nicotiana glutinosa | 500 µg/mL | – | protective effect | 55.6 ± 3.7% |
| Cn1c(C23CC4CC(CC(C4)C2)C3)nn(CCN2CCCC2)c1=S | Micrococcus luteus | microbial growth, disc diffusion | IFO3232 | 200 µg/disc, 24 h | – | inhibition zone | 18 mm |
| CC(C)(C)OC(=O)N[C@H](Cc1ccccc1)[C@@H](O)CN1CCC(N2CCCCC2)CC1 | Plasmodium berghei | parasite growth | HepG2 | 10 µM, liver stage | – | inhibition | ~99% |
| COc1ccc(S(=O)(=O)NCc2c[nH]nc2-c2cccs2)cc1 | Cryptosporidium parvum | intracellular growth | HCT-8, AUCP-1 | treatment from 2.5 h post-infection | – | EC50 | 730 nM |
| O=[N+]([O-])c1ccc(CSc2nnc(C34CC5CC(CC(C5)C3)C4)n2-c2ccccc2)cc1 | Micrococcus luteus | microbial growth, disc diffusion | IFO3232 | 200 µg/disc, 24 h | – | inhibition zone | 19 mm |
| Fc1ccc2c(c1)c1nc3ccc(Br)cc3c-1cn2Cc1cn(-c2ccccc2I)nn1 | Giardia duodenalis trophozoites | UHPLC-Q-TOF-MS, measured: GlcCer(d18:2/20:0) | – | IC50, 0.1412 h | reference: 0.25% DMSO | fold change | 3.68 |
| CC(=O)C1=C(O)C=C2Oc3c(C(C)=O)c(O)c(C)c(O)c3[C@]2(C)C1=O | Trichophyton rubrum | broth microdilution | LM 237 | 168 h | – | MIC99 | 580 µM (≈ 200 µg/mL) |
| COc1ccc(-c2nc(-c3ccccc3OC)[nH]c2-c2ccc(OC)cc2)cc1 | Schistosoma mansoni | – | worm couples | 25 µM | – | reduction in egg number | 100% |
| NNc1nnc(NN)c2ccccc12 | Leishmania braziliensis | parasite growth, MTT | – | 25 µM, promastigote | – | inhibition | 12.4% |
| Cn1c(SCCN2CCCCC2)nnc1C12CC3CC(CC(C3)C1)C2 | Micrococcus luteus | – | IFO 3232 | 200 µg/disc, 24 h, 37 °C | – | inhibition zone diameter | < 10 mm |
| Oc1cc(C(F)(F)F)ccc1-c1nc2c(C(F)(F)F)cc(C(F)(F)F)cc2[nH]1 | Klebsiella pneumoniae | colistin potentiator | KP F3, colistin-resistant | 5 µM | – | colistin MIC | 1 µg/mL |
| c1ccc(-c2nc(-c3ccc4ccccc4c3)c[nH]2)cc1 | Schistosoma mansoni | – | mature male and female worms | 25 µM, 96 h | – | worm killing | 0% |
| CCCC(CCC)C(=O)OC1O[C@@H]2O[C@@]3(C)CC[C@H]4[C@H](C)CCC([C@H]1C)[C@@]24OO3 (some centres unmarked) | Danio rerio | intersegmental vessel formation, inhibitor | Tg(fli1:EGFP), embryos | below toxic concentration | – | lowest effective concentration | 1 µg/mL |
| COc1ccc(C(=O)CSc2nnc(COCCn3c([N+](=O)[O-])cnc3C)o2)cc1F | Providencia | – | DMSO | 60 µg/mL, 24 h, 37 °C | – | inhibition zone diameter | ≥ 20 mm |
| CCN1CCN(Cn2nc(C34CC5CC(CC(C5)C3)C4)n(-c3ccccc3)c2=S)CC1 | Micrococcus luteus | microbial growth, disc diffusion | IFO3232 | 200 µg/disc, 24 h | – | inhibition zone | 11 mm |
| C[C@H]1CN(C(=O)c2cn(-c3ccnc(N)n3)c3cc(C#CC4(O)CCCCC4)ccc23)CCN1 | mouse | cell migration and invasion, Transwell | B16-BL6 | concentration not given | – | migrating and invading cells | decreased |
| COCCOc1ccc2cc1S(=O)(=O)NCCCNc1nc(ncc1-c1ccc(F)c(OC)c1)N2 | Dengue virus 2 | viral replication, luciferase reporter | Huh-7, DENV-2-Rluc | 1, 3 or 10 µM | – | antiviral activity | no effect |

| Structure (SMILES) | organism | assay | system | conditions | how to read | quantity | value |
| --- | --- | --- | --- | --- | --- | --- | --- |
| CCCCCCCCCCCCCCCCCC(=O)N[C@@H](CCCCN)C(=O)N[C@@H](CCCCN)C(=O)N[C@@H](CCCCN)C(=O)N[C@@H](CCCCN)C(=O)N[C@@H](CCCCN)C(N)=O | Escherichia coli K12 | propidium iodide flow cytometry | – | 1 × MIC, 30 min | – | dead cells | 23.1% |
| CCN(CC)CCCSC(=S)N1CCN(C(=O)/C=C/c2coc3ccc(F)cc3c2=O)CC1 | tomato spotted wilt virus | viral infection, half-leaf method | Nicotiana glutinosa | 500 µg/mL | – | curative effect | 58 ± 5.6% |
| N#C/C(=C\c1ccc(O)c(O)c1)C(=O)c1ccc(O)c(O)c1 | Strongylocentrotus purpuratus | inhibitor | egg homogenate | concentration not given, added: cADPR 300 nM | – | Ca2+ release | inhibited |
| S=c1n(CN2CCN(c3ccccn3)CC2)nc(C23CC4CC(CC(C4)C2)C3)n1-c1ccccc1 | Micrococcus luteus | microbial growth, disc diffusion | IFO3232 | 200 µg/disc, 24 h | – | inhibition zone | 20 mm |
| Brc1ccc(-c2c[nH]c(-c3ccccn3)n2)cc1 | Schistosoma mansoni | – | mature male and female worms | 5 µM, 96 h | – | worm killing | 0% |
| CCCCSC(=S)N1CCN(C(=O)/C=C/c2coc3ccccc3c2=O)CC1 | tomato spotted wilt virus | viral infection, half-leaf method | Nicotiana glutinosa | 500 µg/mL | – | inactivation effect | 54.8 ± 6.4% |
| CCC12CCc3c(c4ccccc4n3C)CCN(CC3OC31)C2 (centres unmarked) | Danio rerio | Griess | larvae | 25 µM, added: LPS | – | nitric oxide level | decreased |
| CN(C)CCCSC(=S)N1CCN(C(=O)/C=C/c2coc3cc(F)ccc3c2=O)CC1 | tomato spotted wilt virus | viral infection, half-leaf method | Nicotiana glutinosa | 500 µg/mL | – | protective effect | 63.4 ± 4.1% |
| Oc1ccc(C(F)(F)F)cc1-c1nc2c(Cl)cc(Cl)cc2[nH]1 | Klebsiella pneumoniae | colistin potentiator | KP I2, colistin-resistant | 5 µM | – | colistin MIC | 2 µg/mL |
| c1ccc(CSc2nnc(C34CC5CC(CC(C5)C3)C4)n2-c2ccccc2)cc1 | Micrococcus luteus | microbial growth, disc diffusion | IFO3232 | 200 µg/disc, 24 h | – | inhibition zone | 12 mm |
| O=C1CC(c2ccc(O)cc2)Oc2cc(O)cc([O][Ga+][O]c3cc(O)cc4c3C(=O)CC(c3ccc(O)cc3)O4)c21 (centres unmarked) | Pseudomonas aeruginosa | RNA-seq | PAO1 | 4 µM, 4 h, out of 38 genes | – | number of downregulated iron homeostasis genes | 37 |
| CSc1nc(NCC(C)C)c2cnn(CCNC(=O)C3CCCC3)c2n1 | Zika virus MR766 | – | ZIKV-infected Vero cells | 25 µM, 3 days, unit not given | reference: virus-infected untreated cells, above 1 protective | viability | > 1 |
| CCN(CC)CCSC(=S)N1CCN(C(=O)/C=C/c2coc3cc(OC)ccc3c2=O)CC1 | tomato spotted wilt virus | virus inactivation, half-leaf method | Nicotiana glutinosa | tested 31.25 to 500 µg/mL | – | EC50 | 287 ± 8.2 µg/mL |
| CCN(CC)CC#CCNc1ccnc2cc(Cl)ccc12 | Plasmodium falciparum | schizont maturation | field isolates | – | reference: human serum over Albumax | IC50 ratio | ~3 fold |
| C/C(=C\c1ccco1)[N+](=O)[O-] | Leishmania braziliensis | motility arrest | promastigotes | 72 h, 26 °C | – | minimal parasiticidal concentration | 31.6 ± 0.5 µM |
| Cc1ncc([N+](=O)[O-])n1CCOCc1nnc(SCC(=O)c2ccc(F)cc2)o1 | Providencia | – | DMSO | 60 µg/mL, 24 h, 37 °C | – | inhibition zone diameter | 10 to 15 mm |
| O=C(CCCN1C(=O)c2cccc3cccc(c23)C1=O)NO | Cryptosporidium parvum | parasite growth | HCT-8 | 5 µM | – | inhibition | 67.5% |
| Oc1ccc(Cl)cc1-c1nc2cc(C(F)(F)F)ccc2[nH]1 | Klebsiella pneumoniae | colistin potentiator | B9 | 5 µM | – | MIC of colistin | 0.25 µg/mL |
| CC(C)CSC(=S)N1CCN(C(=O)/C=C/c2coc3ccccc3c2=O)CC1 | tomato spotted wilt virus | viral infection, half-leaf method | Nicotiana glutinosa | 500 µg/mL | – | protective effect | 49.8 ± 5.3% |
| Oc1ccc(C(F)(F)F)cc1-c1nc2c(Br)cc(Br)cc2[nH]1 | Klebsiella pneumoniae | colistin potentiator | B9 | 5 µM | – | MIC of colistin | 0.25 µg/mL |
| CCN(CC)CCCSC(=S)N1CCN(C(=O)/C=C/c2coc3ccccc3c2=O)CC1 | tomato spotted wilt virus | virus inactivation, half-leaf method | Nicotiana glutinosa | tested 31.25 to 500 µg/mL | – | EC50 | 184 ± 7.5 µg/mL |
| O=C(O)c1ccc(/C=C2\SC(=S)N(Cc3cccc(C(F)(F)F)c3)C2=O)cc1 | Salmonella | measured: IL-1β | LPS-primed mouse BMDM | concentration not given | – | NLRC4 inflammasome activation | no effect |
| CSc1nn(CC(=O)Nc2ccc(F)c(F)c2)c(N)c1-c1nc(-c2ccc3c(c2)OCO3)no1 | Zika virus MR766 | – | ZIKV-infected Vero cells | 10 µM, 3 days, unit not given | reference: virus-infected untreated cells, above 1 protective | viability | > 1 |

Excerpt of the above:
| Structure (SMILES) | organism | assay | system | conditions | how to read | quantity | value |
| --- | --- | --- | --- | --- | --- | --- | --- |
| O=C(O)c1ccc(/C=C2\SC(=S)N(Cc3cccc(C(F)(F)F)c3)C2=O)cc1 | Salmonella | measured: IL-1β | LPS-primed mouse BMDM | concentration not given | – | NLRC4 inflammasome activation | no effect |
| CCN(CC)CCSC(=S)N1CCN(C(=O)/C=C/c2coc3cc(OC)ccc3c2=O)CC1 | tomato spotted wilt virus | virus inactivation, half-leaf method | Nicotiana glutinosa | tested 31.25 to 500 µg/mL | – | EC50 | 287 ± 8.2 µg/mL |
| c1ccc(-c2nc(-c3ccc4ccccc4c3)c[nH]2)cc1 | Schistosoma mansoni | – | mature male and female worms | 25 µM, 96 h | – | worm killing | 0% |
| CC(=O)C1=C(O)C=C2Oc3c(C(C)=O)c(O)c(C)c(O)c3[C@]2(C)C1=O | Trichophyton rubrum | broth microdilution | LM 237 | 168 h | – | MIC99 | 580 µM (≈ 200 µg/mL) |
